Assay results of several laboratories.
Parts stem from different laboratories: compare values within a part only.

Series 1 — technique: RNA Bind-n-Seq; molecule type: RNA; sample: in vitro; tested at: 365 nM; baseline: no-protein control; direction: higher = stronger binding
Target: RNA binding protein fox-1 homolog 2, RRM domain, GST-SBP tag (RBFOX2, Homo sapiens, UniProt O43251-10, residues 100-194)
Notes: natural RNA segment, single round, ends assumed
Constant ends, left off below: GGGAGUUCUACAGUCCGACGAUC … UGGAAUUCUCGGGUGCCAA
Residues (chain): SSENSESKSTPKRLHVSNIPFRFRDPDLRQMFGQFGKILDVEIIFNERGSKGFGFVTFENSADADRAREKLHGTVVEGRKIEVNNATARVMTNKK
| Oligonucleotide | RBNS enrichment (R) |
| --- | --- |
| GCCCUAUAGUUCUGUGACUUCAUUUGCUAUACGCUUUAAAUGUGUUGAGCAGCCUAUGAACCUAAAGACAUACUGCAGUUUGUUCAUAAAUGUAUUCAGUCUUUUAUUCU | 0.442 |
| UUGCUGUCUGAGAUAUCCUUCAUAGUAUUCCAUGGCUCCCAUACUGCAGUCUAGUUAAGCAAAGAACUCUCACUAGAAAGGUUUAUUUCAGCCGGGUGUGGUGGUGGUGC | 0.606 |
| UAAGAGUUCCCUAGGGAGUUACCAGGGCUUUUCGUUUUGUGUAGCUUUUGCAGCAUGGAUCAAACAUUGGCUUACUGUGCUAAUGUGUGAAGAGAAAAAAUUCUCUAAAG | 0.887 |
| GGAGCCUGGACACUGCCAUCUCUAGAGCAGAGUGGAGGCCUGGACUCCCUUUGCUCACUCCAUUCGGGUCCACAGCUGAGGUUGCCGCUGACAAGAUGAAUGGGCACUGC | 0.325 |
| CUCCAGCUAGCCUACACUGAUCCUGCCUAAGCAGGGUCCUGAACGCCGGAGACAGGGUCUGCUGGAGCUGGGAGACGGCGCUGCAGAUAGAUGGCUACAGGAGCUUUUGG | 0.417 |
| UCCUGGAUUGACUCUUAAUCAUCAGGCAUCAUUCCUGGUUUGCUUCUCUACGAAUCUCAAUUCCAACUUCUCUGCAGAGUCUGUACAGUGAUUAAGCCAUGCCAGAUGGU | 0.64 |
| ACACACAUAGAGGACUCUGGAGCCGCAGUGGGACAGCCCUGCCUGCUUGUUCUUCUGAACUUGGGGACCAUGCCUCUUUGGGCUCUGCUUCCAGGAUGGUUUGGGAAGCA | 5.23 |
| CCCAUGGUUCAAGUGACAGUGGGUGACCUUGUCUGCCAAGAUCUUUCUUUUGAAUGUUUUGAACCCAACUACUUGUCAUAGAUGUUUGACUGUGUCAAAAGCUGUGAGCA | 2.1 |

Series 2 — target: human cyclin B2; read-out: peptide binding; technique: yeast competitive growth sequencing; molecule type: peptide; organism: Saccharomyces cerevisiae; strain: cyclin B2-Cln2 fusion; tested at: concentration not given; notes: combined libraries; direction: direction not given
| Molecule | binding enrichment score |
| --- | --- |
| GSPLKKLFTSTGA | 0.00241 |
| GSPLKKLFTATGL | 0.408 |
| GSPLKALFTSTGL | -0.0894 |

Series 3 — technique: competition protein-binding microarray; molecule type: double-stranded DNA, one strand shown; sample: in vitro; tested at: 2 µM; with: Pho4 competitor, 0.05 µM; direction: higher = stronger binding; constant ends, left off below: … GTCTTGATTCGCTTGACGCTGCTG
Target: Centromere-binding protein 1, full length, His-tagged (CBF1, Saccharomyces cerevisiae, UniProt P17106, residues 1-351)
Chain of UniProt P17106 (whole entry, looked up): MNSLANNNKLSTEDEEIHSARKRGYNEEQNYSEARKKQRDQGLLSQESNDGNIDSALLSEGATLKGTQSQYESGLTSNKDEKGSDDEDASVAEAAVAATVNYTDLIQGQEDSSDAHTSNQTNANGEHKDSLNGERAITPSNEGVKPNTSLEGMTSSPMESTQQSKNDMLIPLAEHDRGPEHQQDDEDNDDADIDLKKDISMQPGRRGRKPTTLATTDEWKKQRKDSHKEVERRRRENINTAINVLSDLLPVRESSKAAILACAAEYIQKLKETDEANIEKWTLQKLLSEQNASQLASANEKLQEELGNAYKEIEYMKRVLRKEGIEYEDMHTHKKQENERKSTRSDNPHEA
Notes: whole 60-bp probe, lowest competitor level
| Oligonucleotide | fluorescence intensity [a.u.] |
| --- | --- |
| CGGGGTTAAGTTTGCAGGGTGGGTGGCTTGCAGCAG | 70.8 |
| GAAGTCTCCAAACTCCACGTGTTGGTATTTCTCGTA | 805 |
| CGTAAATATCAACTTGTCGTGCTAATAAGCACTAAC | 84.7 |
| CGGATATTCTTTCTTCACGTGCATCTACTGCTTTTT | 1060 |
| TAGTATCAAAGTAGGCATGTGGGTTGATACCAACGA | 81.8 |
| TTAAAACACTAATGAAACGTGTTGAAGGGGCCCGAC | 95.5 |
| ATTGTTTGGCTTCGTCACGTGGGTAAGTGCCGGAGA | 3000 |
| GTCTTGTCTCATTGGCTCGTGGGTGTCCCCACTTCA | 82.2 |
| GTCTTGTCTCATTGATGTGTGGGTGTCCCCACTTCA | 83.8 |
| CATCAATCTTTCCATCACGCAATGGCTTGTTGTTTT | 81.3 |
| TTATATTGTGTGAAGCACATGCCACACTTTCCAAAA | 150 |
| TTTTTTTCCCAGAGACGCGTGGAAGCACCCATGGAT | 62.2 |
| CAGATCGATTTGATATACGTGGTGAAGCAAAAAGCG | 70.8 |
| CTCCATATGGTACTATCACTTCTGCAAAGGTTATGA | 73.3 |
| GCCACTCTAGACCGTCACATGTCCAATGTTTCTTTT | 921 |
| CTAACGAAGGTTTGCTAGGTGGGTGACAAGCCAAGT | 62.4 |
| CTAACGAAGGTTTGACCAGTGGGTGACAAGCCAAGT | 63.9 |
| AAAGCGGTAATTTCTCACGTGTTTTCACATATCTAT | 1310 |
| TGCGCAACAACTTGTGGAGTGGGTGTATGTCTAGAA | 62.7 |

Series 4 — technique: protein-binding microarray; molecule type: double-stranded DNA, one strand shown; sample: in vitro; tested at: 2200 nM top; notes: 60-bp whole probe; with: salmon DNA 0.4 mg/ml; baseline: random background probes; direction: higher = stronger binding; constant ends, left off below: GCCTAGCAC … GTCTTGATTCGCTTGACGCTGCTG
Target: Interferon regulatory factor 7, full length, phosphomimetic (IRF7, Homo sapiens, UniProt Q92985, residues 1-503, S471D/S472D/S475D/S476D/S477D/S483D/S484D/S487D)
Target sequence (chain): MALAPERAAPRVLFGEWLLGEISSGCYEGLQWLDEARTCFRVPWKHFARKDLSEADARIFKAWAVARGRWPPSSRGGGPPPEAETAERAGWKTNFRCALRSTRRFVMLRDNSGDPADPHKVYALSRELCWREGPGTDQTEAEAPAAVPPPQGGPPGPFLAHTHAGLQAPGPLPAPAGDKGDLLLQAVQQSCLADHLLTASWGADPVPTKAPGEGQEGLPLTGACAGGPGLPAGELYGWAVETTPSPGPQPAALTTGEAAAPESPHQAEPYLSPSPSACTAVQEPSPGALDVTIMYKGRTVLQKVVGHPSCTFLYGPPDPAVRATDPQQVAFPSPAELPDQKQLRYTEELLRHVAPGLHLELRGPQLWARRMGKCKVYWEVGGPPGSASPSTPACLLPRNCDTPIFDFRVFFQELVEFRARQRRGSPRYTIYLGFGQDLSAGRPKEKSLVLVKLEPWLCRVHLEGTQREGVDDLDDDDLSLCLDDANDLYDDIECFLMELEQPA
| Oligonucleotide | fitted relative affinity [z-score] |
| --- | --- |
| CCTCACTTCCTTCTGCCTGTGTGCTAG | 2.61 |
| TTAGAACTGAGACTGGACTAGTGCTAG | -0.752 |
| GACGAACTGAGACTGGAGATGTGCTAG | -0.498 |
| GAAGGTATCCTTATCCTGACGTGCTAG | 0.563 |
| GACGATTTCGGTTTTCGAGACGTGCTA | 8.05 |
| GACGGTTTCAGTTCCGAGACGTGCTAG | 3.59 |
| CTCTGCTTGTGTCTGGGCTTGTGCTAG | 0.71 |
| GACGGTATCCTTTTACTGACGTGCTAG | 1.16 |
| TTAGGTTTCGACCCTGGGTTAGTGCTA | 2.68 |
| TCACTTTTCCCCCTAGTACTGTGCTAG | 3.07 |
| GACGGTATCGACTATCTGGACGTGCTA | 0.225 |
| GACGGTTTACTTTTCCTGACGTGCTAG | 2.33 |
| TTAGAACTTAGACTGGATTAGTGCTAG | -0.666 |
| GACGGACTGCTATTGCTGACGTGCTAG | -0.0976 |
| TCATGACTGGAGTCTGGAACTGTGCTA | -0.11 |
| CTAGTTTTACTTTCTATGTCGTGCTAG | 4.36 |
| TTAGAACTGGGGACTGGACTAGTGCTA | -0.595 |
| GACGGTACCGGTTTCGGGACGTGCTAG | 2.9 |
| TTAGGACTGGGTTTCGGGTAGTGCTAG | 2.09 |

Excerpt of the above (series 4):
| Oligonucleotide | fitted relative affinity [z-score] |
| --- | --- |
| GACGGTTTACTTTTCCTGACGTGCTAG | 2.33 |
| TTAGAACTTAGACTGGATTAGTGCTAG | -0.666 |
| GACGGACTGCTATTGCTGACGTGCTAG | -0.0976 |
| TCATGACTGGAGTCTGGAACTGTGCTA | -0.11 |
| CTAGTTTTACTTTCTATGTCGTGCTAG | 4.36 |
| TTAGAACTGGGGACTGGACTAGTGCTA | -0.595 |
| GACGGTACCGGTTTCGGGACGTGCTAG | 2.9 |
| TTAGGACTGGGTTTCGGGTAGTGCTAG | 2.09 |
